Assay results from different studies.
Parts stem from different laboratories: compare values within a part only.

Sample 1 — organism: human coronavirus OC43; read-out: virus-induced cell killing; cell line: MRC-5; setting: screen
Structure (SMILES)	maximum inhibition [%]
O=C(O)Cc1ccccc1Nc1c(Cl)cccc1Cl	17.7
CC(C)Oc1ccc(C(=O)N[C@H](CNC(=O)CN(C)C)Cc2ccc(-c3cn4cccc([C@H](C)O)c4n3)cc2)cc1Cl	9.02
CCCCC[C@H](O)CC(=O)CCc1ccc(O)c(OC)c1	17.7
CCCCCCCCCCCCCCCCOc1nc2ccc(C)cc2c(=O)o1	9.21

Further values, each from its own experiment
SMILES	test	system	conditions	endpoint	result
O=C(O)C[C@H](NC(=O)[C@H](CC(=O)O)NC(=O)[C@H](CC(=O)O)NC(=O)[C@H](CC(=O)O)NC(=O)[C@H](CC(=O)O)NC(=O)[C@H](CC(=O)O)NC(=O)[C@H](CC(=O)O)NC(=O)[C@H](CC(=O)O)NC(=O)[C@H](CC(=O)O)NC(=O)[C@H](CC(=O)O)NC(=O)[C@H](CC(=O)O)NC(=O)[C@H](CCCCNC(=O)c1ccc(C(=O)NCCOCCOB2BBBBBB3BBBB3B2)cc1)NC(=O)CN1CCN(CC(=O)O)CCN(CC(=O)O)CCN(CC(=O)O)CC1)C(=O)O [gallium-67 labelled]		ddY mice, male, bone (left femur)	intravenous, 37 kBq, 10 min	tissue uptake	9.23 %ID/g
N=C(N)NCCC[C@H](NC(=O)[C@@H](Cc1ccccc1)NC(=O)[C@H](Cc1c[nH]cn1)NC(=O)CCCc1ccccc1)C(=O)N[C@@H](Cc1c[nH]c2ccccc12)C(=O)NCC(=O)N[C@@H](CCCCNC(=O)CCCCCNC(=O)CN1CCN(CC(=O)O)CCN(CC(=O)O)CCN(CC(=O)O)CC1)C(N)=O [actinium-225 labelled]	five-compartment model fit	SCID mice, A-375 and A-375/MC1R xenografts		kidney elimination rate constant (ke)	0.0008 h⁻¹
CCCC[C@H]1C(=O)N(C)[C@@H](CCCC)C(=O)N[C@@H](CCCNC(=O)CN2CCN(CC(=O)O)CCN(CC(=O)O)CCN(CC(=O)O)CC2)C(=O)N[C@H](C(=O)NCC(N)=O)CSCC(=O)N[C@@H](Cc2ccc(O)cc2)C(=O)N(C)[C@@H](C)C(=O)N[C@@H](CC(N)=O)C(=O)N2CCC[C@H]2C(=O)N[C@@H](Cc2c[nH]cn2)C(=O)N[C@@H](CC(C)C)C(=O)N2C[C@H](O)C[C@H]2C(=O)N[C@@H](Cc2c[nH]c3ccccc23)C(=O)N[C@@H](CO)C(=O)N[C@@H](Cc2cn(C)c3ccccc23)C(=O)N1C [lutetium-177 labelled]	radio-HPLC	mouse serum	24 h, 37 °C	radiochemical purity	> 97%
CC(C)[C@@H]1NC(=O)[C@H](Cc2ccccc2)NC(=O)[C@@H]2NC(=O)[C@H](Cc3ccccc3)NC(=O)[C@@H]3CCCN3C(=O)CNC(=O)[C@H](Cc3ccccc3)NC(=O)[C@@H]3CNCCCC[C@@H](C(=O)O)NC(=O)[C@@H]4NC(=O)[C@H](CC(N)=O)NC(=O)CNC(=O)[C@H]([C@@H](O)C(=O)O)NC(=O)[C@H](CSC[C@@H](NC(=O)[C@H](CCC(N)=O)NC(=O)[C@H](CCCCNC(=O)c5ccc(NN)nc5)NC(=O)[C@@H](N)CS[C@H]4C)C(=O)N[C@@H](CS[C@H]2C)C(=O)N3)NC1=O [technetium-99m labelled]		rat 45 min ischemia, 2 h reperfusion, blood		half-life	11.3 min
